# Measurements gathered from unrelated publications.
# Values joined by “and” are separate records of one study, mostly repeats; a detail may differ. Numbers after ± are the reported error.
SMILES,assay,system,setting,how to read,endpoint,value
CC(=O)N(C)[C@H]1CCN(C(=O)c2cnc3c(c2)C[C@](C)(c2ccc(F)cc2)N3)C1,refers to: urinary frequency,human,"oral, dose not given, added: midazolam",,adverse event duration,3 days
CN1CC[C@@H](c2c(O)cc(O)c3c(=O)cc(-c4ccc(C(F)(F)F)cc4Cl)oc23)[C@@H]1CO,refers to: Sepsis,relapsed or refractory haematological malignancies,"oral, dose not given, grade 3 to 4, all arms",,patients with adverse event,12.5%
Cn1ncc(-c2nc(N[C@H]3CC[C@H](N)CC3)ncc2Cl)c1CC1CC1,refers to: anemia any grade,human patients phase I,dose not given,,adverse event incidence,37%
COc1ncnn2ccc(-c3cnc4nc(C)n(Cc5nnc([C@@H](C)F)o5)c4c3)c12,,human,"oral, dose not given, grade 5",,patients with vomiting,0%
COc1cc2c(Oc3ccc4[nH]c(C)cc4c3F)ccnc2cc1OCC1(N)CC1,,paediatric recurrent refractory sarcoma,10 mg,,grade 1 or 2 Nausea,0%
CNC(=O)CC1C(=O)N(C2CCN(C3CCC(C(C)C)CC3)CC2)c2ccccc21 (centres unmarked),,conscious Sprague-Dawley rat,"intravenous bolus, 100 nmol/kg",,onset of sedation,≤ 15 s
Clc1ccc(Cl)c(-c2cc(Cl)ccc2Cl)c1,,"Sprague Dawley rat, spleen","intraperitoneal, 10 mg/kg",,organ weight,0.5 g
CC(C)C[C@H](NC(=O)[C@H](CCCCN)NC(=O)OCC1c2ccccc2-c2ccccc21)C(=O)N[C@H](C(=O)N[C@@H](Cc1ccccc1)C(=O)N[C@@H](Cc1ccccc1)C(=O)N[C@@H](CCCCN)C(=O)NCC(=O)N[C@@H](Cc1ccccc1)C(=O)N[C@@H](C)C(=O)N[C@@H](Cc1c[nH]c2ccccc12)C(=O)N[C@@H](CC(N)=O)C(=O)N[C@H](C(=O)N[C@H]1CSSC[C@@H](C(=O)N[C@@H](Cc2c[nH]cn2)C(=O)N[C@@H](CCCNC(=N)N)C(=O)N[C@@H](CCCNC(=N)N)C(=O)N[C@@H](C)C(=O)N[C@@H](CC(N)=O)C(N)=O)NC(=O)[C@H](C(C)C)NC(=O)[C@H](CCCNC(=N)N)NC(=O)[C@H](C(C)C)NC(=O)CNC(=O)[C@H](CC(N)=O)NC(=O)[C@H](CCCNC(=N)N)NC(=O)[C@H](Cc2ccc(O)cc2)NC(=O)[C@H](C(C)C)NC1=O)C(C)C)C(C)C,HPLC,mouse mammary gland homogenate,"2560 µM, 24.00 h, 37 °C, 50 mg/mL tissue",,remaining peptide,54.1% and 49.4% and 51.3%
C[C@H]1C[C@@H](N2C(=N)N[C@](C)(c3cccc(NC(=O)c4cccc(C#N)c4)c3Cl)CC2=O)CCO1,,rat,"250 mg/kg, every other day",,monocytes count change,45%
COC[C@]12CN(C)[C@@H]3[C@@H]4[C@H](OC)[C@H]1[C@@]3([C@@H](OC)C[C@H]2O)[C@@H]1C[C@@]2(O)[C@H](OC(=O)c3ccccc3)[C@@H]1[C@]4(OC(C)=O)[C@@H](O)[C@@H]2OC,,"Sprague-Dawley rat, plasma","oral, dose not given, with H in PCW extract",,MRT(0-t),2.7 ± 1.07 h
CN1CCN(S(=O)(=O)c2cc([N+](=O)[O-])ccc2N(CCOS(C)(=O)=O)CCOS(C)(=O)=O)CC1,,"naive NOD/SCID mice, pooled blood","intraperitoneal, 25 mg/kg, week 4",,glucose,4.4 mmol/L
CC[C@H](C)CCCCC(=O)N[C@@H](CCN)C(=O)N[C@H](C(=O)N[C@@H](CCN)C(=O)N[C@H]1CCNC(=O)[C@H]([C@@H](C)O)NC(=O)[C@H](CCN)NC(=O)[C@H](CCN)NC(=O)[C@H](CC(C)C)NC(=O)[C@@H](Cc2ccccc2)NC(=O)[C@H](CCN)NC1=O)[C@@H](C)O,,"critically ill patients, high initial AUC group, plasma","dose not given, median",,AUC(0-24 h) at steady state,133 µg·h/mL
O=C(Nc1ccccc1)C1CCN(C(=O)Oc2cccnc2)CC1,Bond-Lader VAS,healthy women,"oral, 100 mg","reference: pre-dose baseline, direction not given",change in contentment score,14
CO[C@H]1C[C@@H]2CC[C@@H](C)[C@@](O)(O2)C(=O)C(=O)N2CCCC[C@H]2C(=O)O[C@H]([C@H](C)C[C@@H]2CC[C@@H](OC(=O)NCCOCCOCCOCCOCCOCCOCCOCCOCCC(=O)N3CCc4cc(Cn5nc(-c6ccc7oc(N)nc7c6)c6c(N)ncnc65)ccc4C3)[C@H](OC)C2)C[C@@H](O)[C@H](C)/C=C(\C)[C@@H](O)[C@@H](OC)C(=O)[C@H](C)C[C@H](C)/C=C/C=C/C=C/1C,,patients with advanced solid tumours,"intravenous, 16 mg weekly, grade 3 or higher",,diarrhoea incidence,0%
COc1ccc2nc3cc(Cl)ccc3c(Nc3cc(CN4CCCC4)c(O)c(CN4CCCC4)c3)c2n1,,"mouse, blood","intraperitoneal, 14 mg/kg",,monocyte count,0.2 10⁹/L
C[C@@H]1NC(=O)[C@H](CCCCNC(=O)CO/N=C/C(=O)NCCCC[C@@H]2NC(=O)[C@@H](Cc3ccccc3)NC(=O)[C@H](CC(=O)O)NC(=O)CNC(=O)[C@H](CCCNC(=N)N)NC2=O)NC(=O)CNC(=O)[C@@H]2CCCN2C(=O)[C@H](CCCCNC(=O)CO/N=C/C(=O)NCCCC[C@@H]2NC(=O)[C@@H](Cc3ccccc3)NC(=O)[C@H](CC(=O)O)NC(=O)CNC(=O)[C@H](CCCNC(=N)N)NC2=O)NC(=O)[C@H](CCCCNC(=O)CCNC(=O)CCNC(=O)CCNC(=O)[C@H](CCCCN)NC(=O)[C@H](Cc2ccccc2)NC(=O)CNC(=O)CN2CCCNCCNCCCNCC2)NC(=O)[C@H](CCCCNC(=O)CO/N=C/C(=O)NCCCC[C@@H]2NC(=O)[C@@H](Cc3ccccc3)NC(=O)[C@H](CC(=O)O)NC(=O)CNC(=O)[C@H](CCCNC(=N)N)NC2=O)NC(=O)CNC(=O)[C@@H]2CCCN2C(=O)[C@H](CCCCNC(=O)CO/N=C/C(=O)NCCCC[C@@H]2NC(=O)[C@@H](Cc3ccccc3)NC(=O)[C@H](CC(=O)O)NC(=O)CNC(=O)[C@H](CCCNC(=N)N)NC2=O)NC1=O [copper-64 labelled],,"normal mice, lung","intravenous, 0.74 MBq, 24 h post-injection",,tissue uptake,2.95 ± 0.51 %ID/g
CC(C)n1c(C2CCNCC2)nc2c([N+](=O)[O-])c(Br)c(Br)cc21,refers to: Thrombocytopenia,AML patients,"dose not given, all doses",,grade ≥3 adverse events,33%
C[C@]1(CO)Cc2ncn(-c3ccc(C#N)c(Cl)c3)c2C(=O)O1,,human,"10 mg, European food-effect part, fed",,drug-related TEAEs,8.3%
CC1(C)C(=O)N(c2ccc(C#N)c(C(F)(F)F)c2)C(=S)N1c1ccc(C(N)=O)c(F)c1,population PK final model,human,dose not given,,peripheral volume of distribution,52.4 L
C=CCNc1c(O)cc2c(O)c1C[C@@H](C)C[C@H](OC)[C@H](O)[C@@H](C)/C=C(\C)[C@H](OC(N)=O)[C@@H](OC)/C=C\C=C(/C)C(=O)N2,,"unresectable or metastatic STS, GIST, other","intravenous, 400 mg/m^2",,patients with infusion site pain,19%
O=[N+]([O-])NC1=NCCN1Cc1ccc(Cl)nc1,,cow whole milk,20 nM,reference: milk fat over skim milk,milk fat partition ratio,0.51
COc1ccc(-c2c(-c3ccc(C#N)c(F)c3)nc(N3CCC(N)CC3)n(C)c2=O)cc1F,refers to: upper respiratory tract infection,human patients,"oral, 60 mg, dose expansion",,serious TEAE incidence,5%
C[C@]1(O)C[C@@](N)(c2ccc(-c3nc4n(c3-c3ccccc3)COc3ccncc3-4)cc2)C1,,"human, advanced or metastatic solid tumours","16 mg once daily, phase I dose escalation",,patients with Hyperphosphatemia TEAE,0%
CCc1ccc(CC/C=C/c2ccc3c(c2)C(=O)CC3)cc1,,"Sprague-Dawley rat, female, blood","oral, 120 mg/kg/day, 14 days",,large unstained cells,1.57%
CCOC(=O)C1=C[C@@H](OC(CC)CC)[C@H](NC(C)=O)[C@@H](N)C1,,"Sprague-Dawley rat male, plasma and urine","oral, 30 mg/kg",,absorption rate constant,0.211 h⁻¹
CCN1[C@@H](C(=O)NC23CCC(C(=O)O)(CC2)CC3)[C@H](c2cccc(Cl)c2F)[C@]2(C(=O)Nc3cc(Cl)ccc32)C12CCCCC2,,patients with advanced solid tumours,"oral, 200 mg",,Fatigue incidence,50%
CC(C)CC(=O)OC[C@H]1O[C@@](C#N)(c2ccc3c(N)ncnn23)[C@H](O)[C@@H]1O,,mouse plasma,0.9 µM,,fraction bound,0.863
CC(C)c1nc(N(C)S(C)(=O)=O)nc(-c2ccc(F)cc2)c1/C=C/[C@@H](O)C[C@@H](O)CC(=O)O,,healthy human subjects,"oral, dose not given, study CL-0537 safety set",,incidence of back pain,0%
CC(C)Nc1ccnc(Nc2cccc(-c3cccnc3)c2)n1,refers to: alkaline phosphatase,"mouse, blood","intraperitoneal, 3 mg/kg",,blood chemistry,144 U/L
C[C@@H](NC(=O)N1C(=O)[C@H](Cc2ccnc(N)c2)[C@H]1C(=O)O)C1CCCCC1,,healthy Chinese adult volunteers,"continuous intravenous infusion, dose not given, 5.0 days, CTCAE 5.0, all doses",,urine leukocyte positive,2.5%
O=S(=O)(Nc1ccccc1)c1ccc(NC(=S)Nc2ccccc2)cc1,,"mouse, female, blood","oral, 20 mg/kg daily, 14 days",,mean corpuscular haemoglobin concentration,32.1 g/dL
CC(=O)c1c(C)c2cnc(Nc3ccc(C4CCN(CCS(C)(=O)=O)CC4)cn3)nc2n(C2CCCC2)c1=O,,HR+/HER2- advanced breast cancer patients,"oral, 100 mg",,patients with TRAE grade ≥3,66.7%
CCCCCCCCCCCCCCCC(=O)N[C@@H](CCC(=O)NCCCC[C@H](NC(=O)[C@H](CC(=O)O)NC(=O)[C@H](CO)NC(=O)[C@@H](NC(=O)[C@H](Cc1ccccc1)NC(=O)[C@@H](NC(=O)CNC(=O)[C@H](CCC(N)=O)NC(=O)[C@H](CO)NC(=O)[C@@H](N)Cc1c[nH]cn1)[C@@H](C)O)[C@@H](C)O)C(=O)N[C@@H](CO)C(=O)N[C@@H](CCC(=O)O)C(=O)N[C@@H](Cc1ccc(O)cc1)C(=O)N[C@@H](CC(C)C)C(=O)N[C@@H](CC(=O)O)C(=O)N[C@@H](CO)C(=O)N[C@@H](CCC(=O)O)C(=O)N[C@@H](CCCNC(=N)N)C(=O)N[C@@H](C)C(=O)N[C@@H](CCCNC(=N)N)C(=O)N[C@@H](CC(=O)O)C(=O)N[C@@H](Cc1ccccc1)C(=O)N[C@H](C(=O)N[C@@H](C)C(=O)N[C@@H](Cc1c[nH]c2ccccc12)C(=O)N[C@@H](CC(C)C)C(=O)N[C@@H](CCC(=O)O)C(=O)N[C@@H](C)C(=O)NCC(=O)NCC(=O)O)C(C)C)C(=O)O,refers to: Tachycardia,humans all renal groups,"subcutaneous, 100 µg single dose",,treatment-related adverse events,5.4%
O=C(O)CCCOc1ccc(F)cc1-c1cc(-c2ccccc2C(F)(F)F)n(-c2ccccc2)n1,,"male Crl:CD(SD) rats, brain","intravenous, 25 µg/kg, 14 d",,organ weight,2.06 ± 0.08 g
CCCCCOc1ccc(-c2ccc(-c3ccc(C(=O)N[C@H]4C[C@@H](O)[C@@H](OCC[N+](C)(C)C)NC(=O)[C@@H]5[C@@H](O)[C@@H](C)CN5C(=O)[C@H]([C@@H](C)O)NC(=O)[C@H]([C@H](O)[C@@H](O)c5ccc(O)cc5)NC(=O)[C@@H]5C[C@@H](O)CN5C(=O)[C@H]([C@@H](C)O)NC4=O)cc3)cc2)cc1,,"adult ICU patients, mITT, serum","dose not given, day 30",,alkaline phosphatase,184 U/L
Cn1c(-c2ccc(C(N)=O)cc2F)nnc1C(C)(C)Oc1c(F)cc(Cl)cc1F,,human,"oral, 10 mg, single ascending dose",,musculoskeletal disorder TEAE,0%
COc1ccc(C[C@@H]2NC(=O)[C@H]([C@@H](C)O)NC(=O)[C@@H]3[C@@H]4CCN3C(=O)[C@@H]3Cc5cn(c6ccc(F)cc56)CCCCCCN(Cc5ccc(cc5)CCNC(=O)[C@]5(C)CCCN5C2=O)C(=O)CCC(=O)N[C@@H](C)C(=O)N[C@H](CNC(=O)CCCCC[N+](C)(C)C)C(=O)N[C@@H](Cc2cccc(c2)CNC(=O)CO4)C(=O)N3)cc1,refers to: maculo-papular rash,human,dose not given,,participants with adverse event,2%
Nc1nc2cc(-c3ccc4ncc(C(=O)N5CCOCC5)n4c3)ccc2o1,,advanced solid tumour patients,"dose not given, drug-related, once-daily dosing",reference: patients,grade ≥3 hyperglycaemia,0%
